# Measured values collected from several papers.
# Lines come from different studies, so protocols differ. ± gives the spread as reported.
SMILES,assay,test system,conditions,how to read,endpoint,value
C[C@H](NC(=O)C[C@H](CCCNC(=N)N)NC(=O)[C@@H]1CCCN1C(=O)[C@H](CCCNC(=N)N)NC(=O)CNC(=O)c1ccc2c(c1)C1(OC2=O)c2ccc(O)cc2Oc2cc(O)ccc21)C(=O)N[C@@H](C)C(=O)N[C@H](C(=O)N[C@@H](Cc1ccccc1)C(=O)N[C@@H](C)C(=O)N[C@@H](CCC(=O)O)C(=O)NCC(N)=O)[C@@H](C)O,,HeLa cytosolic lysate,"1 µM, 37 °C",,t1/2,0.15 h
C#CCOc1ccc(/C=C2\SC(=O)N(CC(=O)NCc3ccccc3)C2=O)cc1,inverse Kirkwood-Buff integrals,binary solvent mixture,"concentration not given, 298.15 K, mole fraction x1 0.20",,correlation volume,2440 cm³/mol
CC(=O)N[C@H](CC(=O)O)C(=O)N[C@H](Cc1c[nH]c2ccccc12)C(=O)N[C@H](Cc1ccccc1)C(=O)N[C@H](CCCCN)C(=O)N[C@H](C)C(=O)N[C@H](Cc1ccccc1)C(=O)N[C@H](Cc1ccc(O)cc1)C(=O)N[C@H](CC(=O)O)C(=O)N[C@H](CCCCN)C(=O)N[C@@H](C(=O)N[C@H](C)C(=O)N[C@H](CCC(=O)O)C(=O)N[C@H](CCCCN)C(=O)N[C@H](Cc1ccccc1)C(=O)N[C@H](CCCCN)C(=O)N[C@H](CCC(=O)O)C(=O)N[C@H](C)C(=O)N[C@H](Cc1ccccc1)C(N)=O)C(C)C,,"statin-treated high-risk CHD men, plasma","oral, 100 mg daily, day 13, 0 to 8 h, mean, detected subjects only",,AUC(0-t),8.33 ng·h/mL
O=C(O)C1CN(Cc2ccc(-c3noc(-c4ccc(OCC[18F])c(C(F)(F)F)c4)n3)cc2)C1,microPET SUV,"C57BL/6 mouse, liver",100 to 120 min,relative to: LPS-treated over sham,liver uptake increase,61%
C=CC(=O)Nc1cc(Nc2nccc(-c3cn(C4CC4)c4ccccc34)n2)c(OC)cc1NC,radiolabelled metabolite profiling,"human male, plasma","oral, 110 mg, 10 h",,plasma concentration,12.5 ng/g
C1=C(c2cc3c(Nc4ccc5scnc5c4)ncnc3s2)CCSC1,,"BALB/c mouse, plasma","oral, 10 mg/kg, 6 h",,concentration,5.21 ng/mL
CCCC[C@H](NC(=O)CNC(=O)CNC(=O)CN1CCN(CC(=O)O)CCN(CC(=O)O)CC1)C(=O)N[C@H]1CC(=O)NCCCC[C@@H](C(N)=O)NC(=O)[C@H](Cc2c[nH]c3ccccc23)NC(=O)[C@H](CCCNC(=N)N)NC(=O)[C@@H](Cc2ccccc2)NC(=O)[C@H](Cc2c[nH]cn2)NC1=O [copper-64 labelled],,"female C57 mouse, B16/F1 melanoma","intravenous, 0.037 MBq, 24 h",relative to: tumour over muscle,uptake ratio,106
COc1cc(NC(C)=O)c2c(c1O)-c1c(OC)c(OC)cc3c1C(C2)N(C)CC3 (stereo not drawn),,rat heart homogenate,"5 µg/mL, 4 h, room temperature, short-term storage",,remaining compound,89 ± 1.5%
CCC/C(=C\C1=C(F)C(=O)c2ccccc2C1=O)C(=O)N(CC)CC,,mouse liver S9,"1 µM, pH 7.4, phase I metabolism",,CLint scaled,25.9 mL/min/kg
Cn1c(=O)oc2ccc(-c3ccc(CC(C#N)NC(=O)C4CNCCCO4)c(F)c3)cc21 (stereo not drawn),,human,"oral, 10 mg once daily, TEAE, multiple ascending dose",,chest pain incidence,11.1%
CC(C)(O)c1ncc([S@](N)(=O)=NC(=O)Nc2c3c(cc4c2CCC4)CCC3)s1,,"healthy human, fasted","oral, 300 mg single dose, spray-dried dispersion",,Tmax,2.53 h
C=C(c1ncc(C(=O)O)cn1)c1cc2c(cc1C)C(C)(C)CCC2(C)C,,"Sprague-Dawley rat, male, plasma","oral, 100 mg/kg, 9 h, sesame oil vehicle",,HDL level,48 ± 20 mg/dL
CC(C)C[C@@H](NC(=O)[C@H](NC(=O)[C@H]1CCCN1)[C@H](C)O)C(=O)N[C@H](Cc1c[nH]cn1)C(=O)N[C@@H](C(=O)N[C@H](Cc1c[nH]cn1)C(=O)N[C@H](CC(N)=O)C(=O)N[C@H](CCCNC(=N)N)C(=O)N[C@H](CCCNC(=N)N)C(=O)N[C@H](CCCNC(=N)N)C(=O)N[C@H](CCCNC(=N)N)C(=O)N[C@H](CCCNC(=N)N)C(N)=O)[C@H](C)O,,"Beagle dog, plasma","oral, 50 mg/kg single dose",,fraction of AUC from gamma half-life,25%
[11CH3]c1ccc2nc(C3CCC3)n(-c3ccc4[nH]ncc4c3)c2n1,extrapolated from mouse,"standard human, Upper large intestine wall",,,absorbed dose,5.8 µSv/MBq
Brc1ccc(Nc2nc(NN=Cc3c[nH]c4ccccc34)nc(N3CCOCC3)n2)cc1,,mouse liver microsomes,,,CLint,177 mL/min/g protein
COc1ccc(/C=C/C2=[N+]3C(=C(CO)c4c(C)cc(/C=C/c5ccc(OC)cc5)n4[B-]3(F)F)C(C)=C2C=O)cc1,,acetonitrile,room temperature,,luminescence quantum yield,16 ± 3%
NC(=O)c1ccc(C(=O)NOCc2ccc(Sc3cccc(Cl)c3)c(C(F)(F)F)c2)cc1,,"male ICR mouse, plasma","intraperitoneal, 30 mg/kg",,AUC(0-t),24500 ng·h/mL
CCN(CC)c1ccc2c(-c3ccccc3C(=O)OCCOCCOCC[18F])c3ccc(=[N+](CC)CC)cc-3oc2c1,microPET,"rat, heart","dose not given, 5 min post injection",,radioactivity concentration,16 ± 2 kBq/cm³
Cc1ccc(-c2ccc(-c3cc4sccc4o3)cn2)nc1,TCSPC,benzene,,,fluorescence lifetime,0.85 ns
NS(=O)(=O)c1ccc(N2N=C(C(F)(F)F)CC2c2ccc(F)cc2F)cc1 (stereo not drawn),,"Beagle dog, male, arthritis model, plasma","oral, 4 mg/kg single dose, day 2",,plasma concentration,274 ± 189 ng/mL
CC12N3Cc4c(OCCCS(=O)(=O)[O-])ccc(OCCCS(=O)(=O)[O-])c4CN1C(=O)N1CN4C(=O)N5Cc6c(OCCCS(=O)(=O)[O-])ccc(OCCCS(=O)(=O)[O-])c6CN6C(=O)N(CN(C3=O)C12C)C4(C)C65C.[Na+].[Na+].[Na+].[Na+] (stereo not drawn),,,"pD 7.4, with: camptothecin",,phase solubility slope,0.16 ± 0.0043
CN(C)CCNC(=O)/C=C/C(Cc1ccccc1)Nc1ccnc2cc(Cl)ccc12 (stereo not drawn),,"ICR mouse healthy, plasma","oral, 5 mg/kg",,AUC,148 ng·h/mL
CC(C)[C@H](NC(=O)CNC(=O)[C@H](CCC(N)=O)NC(=O)[C@H](C)N)C(=O)O,LC-MS/MS,"human, plasma","intravenous, 20 mg/kg three times daily, day 1, first dose, 10 min infusion, geometric mean",,AUC(0-inf),506 ng·h/mL
CCOC(=O)c1[nH]c(C)c(/C=C/C2=[N+]3C(=C(c4cc(OC)cc(OC)c4)c4c(C)c(I)c(/C=C/c5c(C)[nH]c(C(=O)OCC)c5C)n4[B-]3(F)F)C(C)=C2I)c1C,,DMSO,,,log molar absorptivity,4.96 M⁻¹ cm⁻¹
Oc1ccc2ccccc2c1/N=N/c1ccc(/N=N/c2ccccc2)cc1,,extracted rat blood QC samples,"0.5 µg/L, 8 h, room temperature, short-term stability",,measured concentration,0.524 µg/L
C=C(c1cc(F)c(C(=O)O)c(F)c1)c1cc2c(cc1C)C(C)(C)CCC2(C)C,,"Sprague-Dawley rat, male, plasma","oral, 100 mg/kg, 1 h, sesame oil vehicle",,HDL level,109 ± 11.8 mg/dL
OCc1cn(Cc2ccc(-c3noc(-c4ccc(OCC[18F])c(C(F)(F)F)c4)n3)cc2)nn1,,"rat, pancreas","intravenous, 30 min",,tracer uptake,1.89 %ID/g
NC[C@@H](C(=O)Nc1ccc(-c2cn[nH]c2)cc1)c1ccccc1,"OECD 405, refers to: Cornea",New Zealand White rabbit,"topical, 0.1 %, 80 h, day 4",direction not given,ocular irritation score,0
CCCC[C@@H]1NC(=O)[C@@H](NC(=O)[C@H](CCC(=O)O)NC(=O)CNC(=O)CN2CCN(CC(=O)O)CCN(CC(=O)O)CCN(CC(=O)O)CC2)CCCCNC(=O)C[C@@H](C(N)=O)NC(=O)[C@H](C(C)C)NC(=O)[C@@H]2CCCN2C(=O)[C@H](CCCNC(=N)N)NC(=O)CNC(=O)[C@H](Cc2c[nH]c3ccccc23)NC(=O)[C@H](CCCNC(=N)N)NC(=O)[C@@H](Cc2ccccc2)NC(=O)[C@H](Cc2c[nH]cn2)NC(=O)[C@H](CCC(=O)O)NC1=O [gallium-67 labelled],,normal C57 mice,"intravenous, 0.037 MBq, 2 h",,intestine uptake,1.32 ± 0.73 %ID
CO[C@H]1/C=C/O[C@@]2(C)Oc3c(C)c(O)c4c(c3C2=O)C2=NC3(CCN(CC(C)C)CC3)NC2=C(NC(=O)/C(C)=C\C=C\[C@H](C)[C@H](O)[C@@H](C)[C@@H](O)[C@@H](C)[C@H](OC(=O)c2cccc(F)c2)[C@@H]1C)C4=O,,CD-1 mouse,"10 mg/kg, single dose",,t1/2,11.7 h
Cc1ccc(OCC(=O)N(Cc2cccs2)c2ccn[nH]2)cc1,,"male beagle dog, plasma","oral, 100 mg/kg, single dose",,AUC(0-t),704 ng·h/mL
Cc1cc2c(cc1C1(c3ncc(C(=O)O)cn3)CC1)C(C)(C)CCC2(C)C,,"Sprague-Dawley rat, male, plasma","oral, 100 mg/kg, 3 h, sesame oil vehicle",,HDL level,59 ± 4.2 mg/dL
NCC(=O)NCC(=O)NCC(=O)NCC(=O)NCC(=O)NCC(=O)NCCCC[C@H](NC(=O)[C@@H]1CCCN1C(=O)[C@@H]1CSSCCC(=O)N[C@@H](Cc2ccc(O)cc2)C(=O)N[C@@H](Cc2ccccc2)C(=O)N[C@@H](CCCC(N)=O)C(=O)N[C@@H](CC(N)=O)C(=O)N1)C(=O)NCC(N)=O,,male Sprague Dawley rats,"sc, dose not given, single dose",,NOEL,2.3 µg/kg
CC[C@H](C)[C@H](NC(=O)[C@@H](NC(=O)[C@H](Cc1ccccc1)NC(=O)[C@@H](N)CC(=O)O)C(C)C)C(=O)N[C@@H](Cc1ccccc1)C(=O)N[C@@H](CC(C)C)C(=O)N[C@@H](CC(=O)O)C(=O)N[C@H](C(=O)N[C@@H](CCCCN)C(=O)N[C@@H](Cc1c[nH]cn1)C(=O)N[C@@H](Cc1ccccc1)C(=O)N[C@@H](CO)C(=O)N1CCC[C@H]1C(=O)N[C@@H](CCC(=O)O)C(=O)N[C@@H](CC(=O)O)C(=O)N[C@@H](CC(C)C)C(=O)N[C@H](C(=O)N[C@H](C(=O)N[C@@H](CCCCN)C(=O)O)C(C)C)[C@@H](C)O)C(C)C,circular dichroism,5 mM phosphate,"455 µM, pH 7",,CD minimum wavelength,~218 nm
O=C([O-])c1cccc(CN(CCN(Cc2cn(Cc3ccccc3)nn2)Cc2cccc(C(=O)[O-])n2)Cc2cn(Cc3ccccc3)nn2)n1.[64Cu+2],,human serum,"1 h, 37 °C, with: 64Cu",,radiometal bound to chelator,99.9%
C[C@]12CC[C@@H]3c4ccc(OCC(=O)N[C@@H](CCCCNC(=O)CN5CCN(CC(=O)[O-])CCN(CC(=O)[O-])CCN(CC(=O)[O-])CC5)C(=O)O)cc4CC[C@H]3[C@@H]1CCC2=O.[68Ga+3],,"female nude mice, MCF7 xenograft, MCF7 tumour","dose not given, 45 min post-injection",,radioactivity uptake,3.18 ± 0.76 %ID/g
N=C(N)NCCC[C@@H]1NC(=O)[C@H](Cc2c[nH]c3ccccc23)NC(=O)[C@@H](CC2CCCCC2)NC(=O)[C@@H]2CCCN2C(=O)[C@@H](NC(=O)CCc2ccccc2)CCCNC1=O,,"C57BL/6J mice, spinal cord","intraperitoneal, 1 mg/kg, two-compartment model",,apparent peripheral volume (V2/F),0.14 µg/(ng/g)
CC[C@@H](C)[C@@H]1NC(=O)[C@@H](Cc2ccccc2)NC(=O)[C@@H]2CCCN2C(=O)[C@H]([C@H](C)CC)NC(=O)[C@@H](Cc2ccccc2)NC(=O)[C@@H]2CCCN2C1=O,,mouse liver microsomes,,,CLint,8.83 mL/min/g tissue
O=C(Cc1ccc(-c2ccc(OCCN3CCOCC3)cc2)cn1)NCc1ccc(F)cc1,,"human, plasma",,,unbound fraction,0.126
NCCCNc1nc2cc(Cl)ccc2n1Cc1ccccc1,metabolic stability,"mouse, liver microsomes","0.1 µM, 30 min, pH 7.4",,compound remaining,89.8%
Cc1[nH]nc2c1N=C(c1ccccc1Cl)c1cnc(NCCOCCO)cc1N2,,"human male, urine","oral, 10 mg, 0-72 h",,urinary excretion,0.31 %Dose
CC(C)(Sc1cc[n+]([O-])cc1-c1ccc(C#N)c2ccccc12)C(=O)OC1OC(C(=O)O)C(O)C(O)C1O (stereo not drawn),,plasma,"oral, 15 mg, severe renal impairment, fasted",,terminal half-life,22.8 h

# Repeated from above:
SMILES,assay,test system,conditions,how to read,endpoint,value
C[C@]12CC[C@@H]3c4ccc(OCC(=O)N[C@@H](CCCCNC(=O)CN5CCN(CC(=O)[O-])CCN(CC(=O)[O-])CCN(CC(=O)[O-])CC5)C(=O)O)cc4CC[C@H]3[C@@H]1CCC2=O.[68Ga+3],,"female nude mice, MCF7 xenograft, MCF7 tumour","dose not given, 45 min post-injection",,radioactivity uptake,3.18 ± 0.76 %ID/g
Cn1c(=O)oc2ccc(-c3ccc(CC(C#N)NC(=O)C4CNCCCO4)c(F)c3)cc21 (stereo not drawn),,human,"oral, 10 mg once daily, TEAE, multiple ascending dose",,chest pain incidence,11.1%
Brc1ccc(Nc2nc(NN=Cc3c[nH]c4ccccc34)nc(N3CCOCC3)n2)cc1,,mouse liver microsomes,,,CLint,177 mL/min/g protein
NCC(=O)NCC(=O)NCC(=O)NCC(=O)NCC(=O)NCC(=O)NCCCC[C@H](NC(=O)[C@@H]1CCCN1C(=O)[C@@H]1CSSCCC(=O)N[C@@H](Cc2ccc(O)cc2)C(=O)N[C@@H](Cc2ccccc2)C(=O)N[C@@H](CCCC(N)=O)C(=O)N[C@@H](CC(N)=O)C(=O)N1)C(=O)NCC(N)=O,,male Sprague Dawley rats,"sc, dose not given, single dose",,NOEL,2.3 µg/kg
CC(C)[C@H](NC(=O)CNC(=O)[C@H](CCC(N)=O)NC(=O)[C@H](C)N)C(=O)O,LC-MS/MS,"human, plasma","intravenous, 20 mg/kg three times daily, day 1, first dose, 10 min infusion, geometric mean",,AUC(0-inf),506 ng·h/mL
O=C(O)C1CN(Cc2ccc(-c3noc(-c4ccc(OCC[18F])c(C(F)(F)F)c4)n3)cc2)C1,microPET SUV,"C57BL/6 mouse, liver",100 to 120 min,relative to: LPS-treated over sham,liver uptake increase,61%
